Assay results gathered from unrelated publications.
Every numbered part comes from another study and shows a few of its results, in no order. “And” joins repeats or separate records; there may be more than shown.
Sequence of UniProt Q15375 (whole entry, looked up): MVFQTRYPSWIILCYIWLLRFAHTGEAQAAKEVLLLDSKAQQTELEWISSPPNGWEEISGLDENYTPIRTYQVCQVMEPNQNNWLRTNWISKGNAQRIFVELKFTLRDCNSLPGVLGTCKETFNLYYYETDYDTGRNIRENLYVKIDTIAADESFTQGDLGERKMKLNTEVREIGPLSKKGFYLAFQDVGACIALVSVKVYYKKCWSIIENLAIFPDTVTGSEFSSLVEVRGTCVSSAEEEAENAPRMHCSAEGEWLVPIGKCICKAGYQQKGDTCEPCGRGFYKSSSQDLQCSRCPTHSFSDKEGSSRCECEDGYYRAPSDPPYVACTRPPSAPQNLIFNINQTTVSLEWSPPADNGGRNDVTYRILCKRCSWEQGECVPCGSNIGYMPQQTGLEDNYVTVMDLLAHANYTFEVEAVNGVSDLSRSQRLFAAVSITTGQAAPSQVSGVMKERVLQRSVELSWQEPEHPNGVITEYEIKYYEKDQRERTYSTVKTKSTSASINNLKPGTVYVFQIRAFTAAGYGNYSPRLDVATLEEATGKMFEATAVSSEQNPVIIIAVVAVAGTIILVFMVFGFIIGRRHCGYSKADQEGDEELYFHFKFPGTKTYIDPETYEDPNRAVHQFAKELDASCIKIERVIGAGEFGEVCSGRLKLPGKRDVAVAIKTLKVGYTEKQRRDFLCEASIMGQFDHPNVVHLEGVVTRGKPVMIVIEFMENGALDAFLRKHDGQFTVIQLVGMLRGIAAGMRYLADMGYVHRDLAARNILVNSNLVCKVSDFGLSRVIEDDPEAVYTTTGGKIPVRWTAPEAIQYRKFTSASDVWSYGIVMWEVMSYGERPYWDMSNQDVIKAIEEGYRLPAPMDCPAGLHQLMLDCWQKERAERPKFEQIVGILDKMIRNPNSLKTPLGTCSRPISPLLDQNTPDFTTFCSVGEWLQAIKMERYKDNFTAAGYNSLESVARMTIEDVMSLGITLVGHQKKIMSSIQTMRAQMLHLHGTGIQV
Sequence of UniProt Q9BWU1 (whole entry, looked up): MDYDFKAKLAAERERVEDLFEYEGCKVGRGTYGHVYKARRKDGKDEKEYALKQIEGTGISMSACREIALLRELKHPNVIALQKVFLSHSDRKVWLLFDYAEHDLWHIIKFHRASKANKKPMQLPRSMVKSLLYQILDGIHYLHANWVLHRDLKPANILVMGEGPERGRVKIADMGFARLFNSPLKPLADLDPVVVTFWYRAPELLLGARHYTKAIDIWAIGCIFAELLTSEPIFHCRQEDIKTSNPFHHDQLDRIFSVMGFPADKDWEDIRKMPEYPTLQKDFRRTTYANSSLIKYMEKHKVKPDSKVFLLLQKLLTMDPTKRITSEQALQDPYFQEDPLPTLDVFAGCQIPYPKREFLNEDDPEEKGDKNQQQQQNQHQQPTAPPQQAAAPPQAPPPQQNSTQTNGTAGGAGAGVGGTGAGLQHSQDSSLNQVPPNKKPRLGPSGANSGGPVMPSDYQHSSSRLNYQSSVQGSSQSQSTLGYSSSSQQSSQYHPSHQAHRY
Sequence of UniProt P36896 (whole entry, looked up): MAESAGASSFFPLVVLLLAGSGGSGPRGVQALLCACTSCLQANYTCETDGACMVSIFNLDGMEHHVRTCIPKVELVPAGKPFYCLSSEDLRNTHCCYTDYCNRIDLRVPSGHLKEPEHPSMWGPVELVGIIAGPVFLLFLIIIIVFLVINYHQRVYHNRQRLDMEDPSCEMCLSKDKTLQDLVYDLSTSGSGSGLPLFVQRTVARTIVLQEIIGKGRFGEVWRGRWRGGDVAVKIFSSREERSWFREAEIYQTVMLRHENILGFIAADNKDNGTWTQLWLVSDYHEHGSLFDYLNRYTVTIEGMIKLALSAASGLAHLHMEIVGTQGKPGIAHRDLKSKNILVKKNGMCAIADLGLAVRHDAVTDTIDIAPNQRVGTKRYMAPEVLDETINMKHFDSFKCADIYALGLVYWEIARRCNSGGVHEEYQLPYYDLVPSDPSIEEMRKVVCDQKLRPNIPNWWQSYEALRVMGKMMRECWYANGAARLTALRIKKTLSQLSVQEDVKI
Sequence of UniProt P08631 (whole entry, looked up): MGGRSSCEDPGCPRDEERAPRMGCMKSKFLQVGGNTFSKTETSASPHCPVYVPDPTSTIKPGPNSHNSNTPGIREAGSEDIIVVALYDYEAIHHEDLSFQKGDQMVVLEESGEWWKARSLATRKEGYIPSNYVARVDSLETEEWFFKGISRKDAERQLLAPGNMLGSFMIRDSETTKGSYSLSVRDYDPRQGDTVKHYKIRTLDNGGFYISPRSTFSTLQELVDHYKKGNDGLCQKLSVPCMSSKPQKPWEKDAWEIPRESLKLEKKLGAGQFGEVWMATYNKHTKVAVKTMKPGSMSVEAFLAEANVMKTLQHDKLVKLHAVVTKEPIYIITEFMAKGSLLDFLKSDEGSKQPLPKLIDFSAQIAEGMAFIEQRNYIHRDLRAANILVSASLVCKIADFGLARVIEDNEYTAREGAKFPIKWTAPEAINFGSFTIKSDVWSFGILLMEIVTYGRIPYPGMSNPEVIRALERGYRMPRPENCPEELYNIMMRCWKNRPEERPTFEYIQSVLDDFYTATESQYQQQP

Set 1
Target: DNA polymerase theta, helicase domain (POLQ, Homo sapiens, UniProt O75417)
Sequence of UniProt O75417 (whole entry, looked up): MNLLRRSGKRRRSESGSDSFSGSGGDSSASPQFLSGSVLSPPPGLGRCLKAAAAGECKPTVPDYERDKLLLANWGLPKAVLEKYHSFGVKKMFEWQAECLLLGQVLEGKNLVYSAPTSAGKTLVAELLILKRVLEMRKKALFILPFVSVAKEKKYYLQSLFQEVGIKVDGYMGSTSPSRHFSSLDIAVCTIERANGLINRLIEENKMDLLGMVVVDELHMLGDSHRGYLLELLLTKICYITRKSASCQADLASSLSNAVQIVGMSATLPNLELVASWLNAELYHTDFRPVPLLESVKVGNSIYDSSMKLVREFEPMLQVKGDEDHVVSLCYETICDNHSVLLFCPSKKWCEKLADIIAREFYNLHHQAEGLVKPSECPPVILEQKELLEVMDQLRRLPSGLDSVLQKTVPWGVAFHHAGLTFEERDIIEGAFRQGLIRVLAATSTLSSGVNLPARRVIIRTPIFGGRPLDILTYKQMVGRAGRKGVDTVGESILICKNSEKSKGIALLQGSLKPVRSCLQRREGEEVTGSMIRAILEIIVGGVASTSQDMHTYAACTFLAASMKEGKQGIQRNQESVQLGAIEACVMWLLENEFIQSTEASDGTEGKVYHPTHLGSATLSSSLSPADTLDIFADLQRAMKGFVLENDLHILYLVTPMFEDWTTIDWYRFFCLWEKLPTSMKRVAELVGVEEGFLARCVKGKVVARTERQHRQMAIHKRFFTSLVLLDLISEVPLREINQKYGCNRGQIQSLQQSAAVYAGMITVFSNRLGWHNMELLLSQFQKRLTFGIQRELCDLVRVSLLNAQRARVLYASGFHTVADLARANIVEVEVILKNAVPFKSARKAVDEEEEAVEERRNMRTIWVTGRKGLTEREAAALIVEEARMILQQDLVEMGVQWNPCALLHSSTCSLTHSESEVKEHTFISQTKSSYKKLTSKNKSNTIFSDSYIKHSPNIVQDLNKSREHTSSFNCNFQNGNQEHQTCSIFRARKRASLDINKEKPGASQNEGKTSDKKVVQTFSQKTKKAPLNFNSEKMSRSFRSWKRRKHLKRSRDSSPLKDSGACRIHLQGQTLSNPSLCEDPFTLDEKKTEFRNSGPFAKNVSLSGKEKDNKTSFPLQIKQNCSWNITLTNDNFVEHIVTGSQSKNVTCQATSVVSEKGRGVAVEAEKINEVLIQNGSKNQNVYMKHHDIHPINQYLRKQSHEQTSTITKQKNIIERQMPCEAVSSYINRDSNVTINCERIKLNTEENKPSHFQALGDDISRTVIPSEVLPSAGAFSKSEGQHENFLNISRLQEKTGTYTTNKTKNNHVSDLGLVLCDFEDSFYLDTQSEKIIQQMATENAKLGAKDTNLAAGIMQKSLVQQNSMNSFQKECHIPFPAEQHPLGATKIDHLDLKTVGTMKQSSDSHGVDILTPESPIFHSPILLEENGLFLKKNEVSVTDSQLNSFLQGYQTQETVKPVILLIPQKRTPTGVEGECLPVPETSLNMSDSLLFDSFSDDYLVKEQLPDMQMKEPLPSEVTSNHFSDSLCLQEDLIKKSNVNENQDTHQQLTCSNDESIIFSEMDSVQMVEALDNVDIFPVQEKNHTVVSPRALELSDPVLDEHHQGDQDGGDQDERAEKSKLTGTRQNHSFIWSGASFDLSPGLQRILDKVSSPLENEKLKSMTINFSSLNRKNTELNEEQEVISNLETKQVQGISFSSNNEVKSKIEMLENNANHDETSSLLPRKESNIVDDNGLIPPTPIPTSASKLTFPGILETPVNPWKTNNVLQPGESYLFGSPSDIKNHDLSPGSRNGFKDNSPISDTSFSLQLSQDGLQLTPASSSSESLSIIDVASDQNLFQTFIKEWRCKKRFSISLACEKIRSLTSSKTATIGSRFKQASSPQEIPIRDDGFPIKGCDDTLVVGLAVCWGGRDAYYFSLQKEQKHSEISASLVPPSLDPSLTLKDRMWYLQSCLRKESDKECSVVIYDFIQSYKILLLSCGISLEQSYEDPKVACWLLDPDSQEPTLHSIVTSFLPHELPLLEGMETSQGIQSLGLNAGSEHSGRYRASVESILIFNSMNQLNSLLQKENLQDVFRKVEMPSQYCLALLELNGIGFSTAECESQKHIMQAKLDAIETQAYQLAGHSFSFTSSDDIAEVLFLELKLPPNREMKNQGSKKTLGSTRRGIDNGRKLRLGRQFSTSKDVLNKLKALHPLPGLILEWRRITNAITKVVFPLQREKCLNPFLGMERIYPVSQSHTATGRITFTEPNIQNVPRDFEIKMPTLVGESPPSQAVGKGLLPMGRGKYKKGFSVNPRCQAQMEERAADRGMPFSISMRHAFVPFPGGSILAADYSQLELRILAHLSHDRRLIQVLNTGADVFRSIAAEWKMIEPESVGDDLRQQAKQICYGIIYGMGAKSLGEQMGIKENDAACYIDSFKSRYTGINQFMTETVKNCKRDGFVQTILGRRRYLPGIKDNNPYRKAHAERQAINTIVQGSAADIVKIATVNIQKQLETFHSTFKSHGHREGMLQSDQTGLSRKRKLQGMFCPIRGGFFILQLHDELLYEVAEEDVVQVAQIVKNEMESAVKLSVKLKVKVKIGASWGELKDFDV
Action: inhibitor
Tested at: concentration not given
With: with ssDNA
`O=C(Nc1ccccc1C(=O)O)c1cccc(S(=O)(=O)N2CCCC2)c1` has a remaining activity of 57.3% and 55.3%.
With `Cc1noc(C)c1S(=O)(=O)Nc1ccc(C(=O)Nc2ccc(Br)cc2)cc1` the remaining activity was 56.5% and 56.2%.
`CCOc1cccc2c1N[C@@H](c1ccc(C(=O)O)cc1)[C@H]1CC=C[C@@H]21` has a remaining activity of 46% and 51.8%.
The remaining activity of `CC[N+](C)(CC)CCC[n+]1c(-c2ccccc2)c2cc(N)ccc2c2ccc(N)cc21` is reported as 40.6% and 42.4%.
`C/C(O)=C(\C#N)C(=O)Nc1ccc(C(F)(F)F)cc1` gave a remaining activity of 68.1% and 67%.
With `Cc1ccc(C(=O)Nc2ccc(S(=O)(=O)[O-])c3cc(S(=O)(=O)[O-])cc(S(=O)(=O)[O-])c23)cc1NC(=O)c1cccc(NC(=O)Nc2cccc(C(=O)Nc3cc(C(=O)Nc4ccc(S(=O)(=O)[O-])c5cc(S(=O)(=O)[O-])cc(S(=O)(=O)[O-])c45)ccc3C)c2)c1.[Na+].[Na+].[Na+].[Na+].[Na+].[Na+]` the remaining activity was 2.57% and 2.71%.
With `CCCCCCCC/C=C\CCCCCCCC(=O)O` the remaining activity was 103% and 97.3%.
For `O=C1c2c(O)ccc(O)c2C(=O)c2c(NCCNCCO)ccc(NCCNCCO)c21`, the remaining activity was 22.7% and 22.2%.

Set 2
Target: Dual specificity tyrosine-phosphorylation-regulated kinase 2 (DYRK2, Homo sapiens, UniProt Q92630)
Effect on: enzyme activity
Action: inhibitor
Tested at: 0.5 µM
Reference: control
Residues (Q92630 1-601): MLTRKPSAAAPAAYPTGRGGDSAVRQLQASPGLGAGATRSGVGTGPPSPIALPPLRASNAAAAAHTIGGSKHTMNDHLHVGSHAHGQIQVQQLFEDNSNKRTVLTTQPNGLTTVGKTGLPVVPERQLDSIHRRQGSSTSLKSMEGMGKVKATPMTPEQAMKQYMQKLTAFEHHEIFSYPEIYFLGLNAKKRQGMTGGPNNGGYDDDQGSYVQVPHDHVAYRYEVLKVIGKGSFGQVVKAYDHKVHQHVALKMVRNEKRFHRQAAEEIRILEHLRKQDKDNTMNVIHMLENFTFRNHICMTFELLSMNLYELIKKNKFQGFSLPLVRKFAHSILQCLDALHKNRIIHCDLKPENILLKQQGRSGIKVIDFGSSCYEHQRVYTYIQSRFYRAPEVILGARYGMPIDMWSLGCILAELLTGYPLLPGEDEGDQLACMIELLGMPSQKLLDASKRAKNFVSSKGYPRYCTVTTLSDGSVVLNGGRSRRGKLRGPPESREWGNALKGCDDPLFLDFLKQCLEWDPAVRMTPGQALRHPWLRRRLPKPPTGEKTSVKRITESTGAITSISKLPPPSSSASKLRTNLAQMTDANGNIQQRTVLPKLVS
For `CC#CC(=O)Nc1cc2c(Nc3ccc(F)c(Cl)c3)ncnc2cn1`, the remaining activity was 91.3%.
`O=S(=O)(NCCNC/C=C/c1ccc(Br)cc1)c1cccc2cnccc12` gave a remaining activity of 95.2%.
`CC[n+]1c(/C=C/N(C)c2ccccc2)n(-c2ccccc2)c2ccc(-c3nc4ccccc4s3)cc21` has a remaining activity of 105%.
For `CCc1[nH]c(-c2ccc(OC)cc2)nc1-c1ccncc1`, the remaining activity was 85.8%.
The remaining activity of `CC(C)(C)n1nc(Cc2cccc3ccccc23)c2c(N)ncnc21` is reported as 98.9%.
The remaining activity of `Cc1ccc(NC2=CC(=O)c3sc(C)nc3C2=O)cc1` is reported as 109%.
For `NC(=O)c1ccc(N(C(N)=O)c2c(F)cccc2F)nc1-c1ccc(F)cc1F`, the remaining activity was 102%.
For `Nc1ncnc2c1cnn2-c1ccccc1`, the remaining activity was 95.6%.
`Nc1nc(Nc2ccc(S(N)(=O)=O)cc2)nn1C(=O)c1c(F)cccc1F` has a remaining activity of 112%.
The remaining activity of `N#CC(=C(N)Sc1ccc(N)cc1)c1ccccc1C(F)(F)F` is reported as 96.6%.
For `O=C1NC(=O)C(c2c[nH]c3ccccc23)=C1c1c[nH]c2ccccc12`, the remaining activity was 97.7%.
With `Fc1ccc(-c2nc3n(c2-c2ccncc2)CCS3)cc1` the remaining activity was 101%.
With `Cc1cc(Nc2nc(-c3ccccc3)nc3ccccc23)n[nH]1` the remaining activity was 84%.
`O=C1Cc2c([nH]c3ccc([N+](=O)[O-])cc23)-c2ccccc2N1` gave a remaining activity of 72%.
For `COc1ccc(S(=O)(=O)N(CCO)c2ccccc2CN(C)CC=Cc2ccc(Cl)cc2)cc1`, the remaining activity was 87.5%.
For `CC(=O)c1ccc(N2CCOCC2)cc1O`, the remaining activity was 101%.
For `Cc1cncc2cccc(S(=O)(=O)N3CCCN(C(=O)CN)C[C@@H]3C)c12`, the remaining activity was 101%.
`Oc1ccc(Nc2nc(-c3ccc(Cl)cc3)cs2)cc1` gave a remaining activity of 91.2%.
The remaining activity of `COc1cc(Nc2c(C#N)cnc3cc(OCCCN4CCN(C)CC4)c(OC)cc23)c(Cl)cc1Cl` is reported as 104%.
`CCCC(=O)Oc1ccc2[nH]c(C(=O)c3cc4ccccc4[nH]3)cc2c1` gave a remaining activity of 91.8%.
With `Nc1nccc(-c2c(-c3ccc(F)cc3)ncn2C2CCNCC2)n1` the remaining activity was 95.9%.
`CSc1nc(-c2ccnc(N[C@@H](C)c3ccccc3)c2)c(-c2ccc(F)cc2)[nH]1` (racemic) has a remaining activity of 96.1%.

Set 3
Structure (SMILES): C[C@H](NC(=O)c1cnc2n1[C@](C)(Cc1ccc(C#N)cc1)C(=O)N2c1cc(Cl)c(F)c(Cl)c1)C(=O)NC1(c2ccccn2)CC1
Tested at: 1 µM
The remaining binding was 84% (EPHA7 (Homo sapiens, UniProt Q15375); cell-free assay, competition with immobilised ligand).
The remaining binding was 100% (AAK1 (Homo sapiens, UniProt Q2M2I8); binding).
For Tyrosine-protein kinase ABL1, non-phosphorylated (ABL1, Homo sapiens, UniProt P00519, F317L); cell-free assay, competition with immobilised ligand: remaining binding read 98%.
The remaining binding was 100% (MET (Homo sapiens, UniProt P08581, Y1235D); cell-free assay, competition with immobilised ligand).
For TAOK3 (Homo sapiens, UniProt Q9H2K8); cell-free assay, competition with immobilised ligand: remaining binding read 88%.
The remaining binding was 100% (FLT3 (Homo sapiens, UniProt P36888, D835H); cell-free assay, competition with immobilised ligand).
For CDK19 (Homo sapiens, UniProt Q9BWU1); competition binding: remaining binding read 81%.
STK10 (Homo sapiens, UniProt O94804); cell-free assay, competition with immobilised ligand — remaining binding: 100%.
It gave 100% for remaining binding (HCK (Homo sapiens, UniProt P08631); cell-free assay, competition with immobilised ligand).
For BMP2K (Homo sapiens, UniProt Q9NSY1); cell-free assay, competition with immobilised ligand: remaining binding read 100%.
It gave 100% for remaining binding (Non-receptor tyrosine-protein kinase TYK2, JH1 (TYK2, Homo sapiens, UniProt P29597); cell-free assay, competition with immobilised ligand).
It gave 100% for remaining binding (Aurora kinase C (AURKC, Homo sapiens, UniProt Q9UQB9); cell-free assay, competition with immobilised ligand).
For WNK3 (Homo sapiens, UniProt Q9BYP7); cell-free assay, competition with immobilised ligand: remaining binding read 78%.
EGFR (Homo sapiens, UniProt P00533, del746-750); cell-free assay, competition with immobilised ligand — remaining binding: 100%.
BMPR1B (Homo sapiens, UniProt O00238); cell-free assay, competition with immobilised ligand — remaining binding: 99%.
The remaining binding was 96% (ERN1 (Homo sapiens, UniProt O75460); cell-free assay, competition with immobilised ligand).
The remaining binding was 99% (ACVR1B (Homo sapiens, UniProt P36896); cell-free assay, competition with immobilised ligand).
The remaining binding was 100% (MARK4 (Homo sapiens, UniProt Q96L34); cell-free assay, competition with immobilised ligand).
The remaining binding was 100% (MAP4K2 (Homo sapiens, UniProt Q12851); cell-free assay, competition with immobilised ligand).
The remaining binding was 100% (MAP3K3 (Homo sapiens, UniProt Q99759); cell-free assay, competition with immobilised ligand).

Set 4
Organism: Plasmodium berghei
Action: inhibitor
Cells: Huh-7
Strain: GFP-expressing sporozoites, liver stage
Tested at: 10 µM
Time: 24 h
Reference: untreated control
For `C[C@]12CC[C@@H]3c4ccc(OC(=O)c5ccccc5)cc4CC[C@H]3[C@@H]1CC[C@@H]2O`, the infection rate was 119%.
With `CCN(CC)CCNC(=O)c1ccc(NC(C)=O)cc1` the infection rate was 75.1%.
`NC(=O)c1cc[n+](CC2=C(C(=O)O)N3C(=O)[C@@H](NC(=O)[C@@H](c4ccccc4)S(=O)(=O)[O-])[C@H]3SC2)cc1` has an infection rate of 107%.
For `C[C@H]1[C@H](NC(=O)/C(=N\OC(C)(C)C(=O)O)c2csc(N)n2)C(=O)N1S(=O)(=O)O`, the infection rate was 93%.
`CC(C[N+](C)(C)C)OC(N)=O` (centres unmarked) has an infection rate of 94.9%.
`COc1cc(OC)c2c(c1)OC(c1ccccc1)CC2=O` (centres unmarked) has an infection rate of 106%.
`C[C@]12CC[C@@H]3c4ccc(OS(=O)(=O)O)cc4CC[C@H]3[C@@H]1CCC2=O` gave an infection rate of 120%.
The infection rate of `CCOC(=O)c1ccc(N)cc1` is reported as 118%.
For `N[C@@H]1CONC1=O`, the infection rate was 113%.
The infection rate of `CCCCCCCCCCCCCCCCCCCCCCO` is reported as 103%.
`c1ccc(-c2ccc(C(c3ccccc3)n3ccnc3)cc2)cc1` (centres unmarked) has an infection rate of 52.2%.
With `CN(C)c1nc(N(C)C)nc(N(C)C)n1` the infection rate was 129%.
With `COC(=O)[C@H](Cc1ccccc1)NC(=O)[C@@H](N)CC(=O)O` the infection rate was 83.8%.
`CC(C)NCC(O)COc1ccc(COCCOC(C)C)cc1` (centres unmarked) gave an infection rate of 103%.
`CN1CCc2cccc3c2[C@H]1Cc1ccc(O)c(O)c1-3` has an infection rate of 20.1%.
`C[C@]12CCC(=O)C=C1CC[C@@H]1[C@@H]2C(=O)C[C@@]2(C)[C@H]1CC[C@]2(O)C(=O)CO` has an infection rate of 92.1%.
For `CC(C)(C)NCC(O)c1ccc(O)c(CO)c1` (racemic), the infection rate was 103%.
With `CN(C)c1ccc(C(=C2C=CC(=[N+](C)C)C=C2)c2ccc(N(C)C)cc2)cc1` the infection rate was 0.23%.

Excerpt of the above (set 3):
EGFR (Homo sapiens, UniProt P00533, del746-750); cell-free assay, competition with immobilised ligand — remaining binding: 100%.
BMPR1B (Homo sapiens, UniProt O00238); cell-free assay, competition with immobilised ligand — remaining binding: 99%.
The remaining binding was 96% (ERN1 (Homo sapiens, UniProt O75460); cell-free assay, competition with immobilised ligand).
The remaining binding was 99% (ACVR1B (Homo sapiens, UniProt P36896); cell-free assay, competition with immobilised ligand).
The remaining binding was 100% (MARK4 (Homo sapiens, UniProt Q96L34); cell-free assay, competition with immobilised ligand).
